# Assay results from different studies.
# Every numbered part comes from another study and shows a few of its results, in no order.
# UniProt Q16832, sequence (whole entry, looked up): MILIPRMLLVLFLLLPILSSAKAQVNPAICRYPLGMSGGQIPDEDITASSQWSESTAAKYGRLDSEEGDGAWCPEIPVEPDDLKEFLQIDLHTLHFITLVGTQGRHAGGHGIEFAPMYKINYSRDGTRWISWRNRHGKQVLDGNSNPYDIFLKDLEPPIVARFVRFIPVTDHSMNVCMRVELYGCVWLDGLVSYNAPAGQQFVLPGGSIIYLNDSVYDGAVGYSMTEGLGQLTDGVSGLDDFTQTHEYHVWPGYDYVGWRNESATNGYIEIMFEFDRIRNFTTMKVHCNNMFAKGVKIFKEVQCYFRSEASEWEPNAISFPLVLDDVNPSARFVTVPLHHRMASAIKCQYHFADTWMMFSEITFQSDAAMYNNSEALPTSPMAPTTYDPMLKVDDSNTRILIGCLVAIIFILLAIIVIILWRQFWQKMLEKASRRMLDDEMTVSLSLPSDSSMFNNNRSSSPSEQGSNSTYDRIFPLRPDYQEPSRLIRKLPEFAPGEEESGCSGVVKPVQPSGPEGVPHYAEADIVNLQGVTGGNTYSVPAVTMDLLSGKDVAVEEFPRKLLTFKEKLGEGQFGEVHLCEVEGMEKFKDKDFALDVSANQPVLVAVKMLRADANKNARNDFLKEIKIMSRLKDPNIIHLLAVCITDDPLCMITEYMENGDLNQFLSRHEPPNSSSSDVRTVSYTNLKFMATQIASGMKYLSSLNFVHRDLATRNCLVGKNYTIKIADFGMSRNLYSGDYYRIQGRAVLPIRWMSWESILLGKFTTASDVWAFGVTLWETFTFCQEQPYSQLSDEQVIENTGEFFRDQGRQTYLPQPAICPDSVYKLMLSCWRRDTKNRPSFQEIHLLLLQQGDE
# UniProt Q6XUX3, sequence (whole entry, looked up): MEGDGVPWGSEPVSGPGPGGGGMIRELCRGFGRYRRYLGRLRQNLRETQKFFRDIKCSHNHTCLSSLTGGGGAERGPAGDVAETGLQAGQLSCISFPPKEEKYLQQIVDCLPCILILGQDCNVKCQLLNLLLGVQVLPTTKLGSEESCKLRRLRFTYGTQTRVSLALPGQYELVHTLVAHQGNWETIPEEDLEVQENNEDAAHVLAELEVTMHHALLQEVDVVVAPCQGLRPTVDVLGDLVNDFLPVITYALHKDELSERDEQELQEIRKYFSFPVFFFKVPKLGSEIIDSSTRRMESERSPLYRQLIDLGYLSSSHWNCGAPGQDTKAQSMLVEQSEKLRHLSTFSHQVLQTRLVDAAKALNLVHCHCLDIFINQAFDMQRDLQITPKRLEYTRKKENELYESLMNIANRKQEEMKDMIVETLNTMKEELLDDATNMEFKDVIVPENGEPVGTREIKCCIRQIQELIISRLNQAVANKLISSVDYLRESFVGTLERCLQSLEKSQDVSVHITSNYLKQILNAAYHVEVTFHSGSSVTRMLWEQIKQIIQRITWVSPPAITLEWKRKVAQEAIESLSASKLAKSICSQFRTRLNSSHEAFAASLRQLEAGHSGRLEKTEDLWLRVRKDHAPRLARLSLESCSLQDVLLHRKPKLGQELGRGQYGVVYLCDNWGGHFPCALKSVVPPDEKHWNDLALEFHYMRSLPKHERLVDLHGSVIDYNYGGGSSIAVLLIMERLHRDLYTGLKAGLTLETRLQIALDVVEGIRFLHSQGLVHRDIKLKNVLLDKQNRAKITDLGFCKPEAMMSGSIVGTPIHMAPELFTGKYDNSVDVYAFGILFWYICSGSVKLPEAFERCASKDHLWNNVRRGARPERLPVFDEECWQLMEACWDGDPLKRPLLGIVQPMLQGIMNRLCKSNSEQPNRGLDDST
# UniProt P51451, sequence (whole entry, looked up): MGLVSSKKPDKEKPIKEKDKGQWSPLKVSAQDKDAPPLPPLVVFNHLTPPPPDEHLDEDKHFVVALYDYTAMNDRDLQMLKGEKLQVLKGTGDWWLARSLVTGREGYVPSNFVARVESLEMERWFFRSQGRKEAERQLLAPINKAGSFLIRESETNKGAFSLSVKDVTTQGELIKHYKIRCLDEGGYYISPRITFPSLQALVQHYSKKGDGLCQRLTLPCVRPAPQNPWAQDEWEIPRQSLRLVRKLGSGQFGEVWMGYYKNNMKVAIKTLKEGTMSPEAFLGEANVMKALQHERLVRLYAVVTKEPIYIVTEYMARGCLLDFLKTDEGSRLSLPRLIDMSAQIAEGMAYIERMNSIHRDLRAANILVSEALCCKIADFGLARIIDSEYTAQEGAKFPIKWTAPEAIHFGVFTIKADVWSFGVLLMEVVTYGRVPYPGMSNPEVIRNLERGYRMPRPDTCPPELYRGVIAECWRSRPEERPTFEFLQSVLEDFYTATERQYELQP
# UniProt Q8TDR2, sequence (whole entry, looked up): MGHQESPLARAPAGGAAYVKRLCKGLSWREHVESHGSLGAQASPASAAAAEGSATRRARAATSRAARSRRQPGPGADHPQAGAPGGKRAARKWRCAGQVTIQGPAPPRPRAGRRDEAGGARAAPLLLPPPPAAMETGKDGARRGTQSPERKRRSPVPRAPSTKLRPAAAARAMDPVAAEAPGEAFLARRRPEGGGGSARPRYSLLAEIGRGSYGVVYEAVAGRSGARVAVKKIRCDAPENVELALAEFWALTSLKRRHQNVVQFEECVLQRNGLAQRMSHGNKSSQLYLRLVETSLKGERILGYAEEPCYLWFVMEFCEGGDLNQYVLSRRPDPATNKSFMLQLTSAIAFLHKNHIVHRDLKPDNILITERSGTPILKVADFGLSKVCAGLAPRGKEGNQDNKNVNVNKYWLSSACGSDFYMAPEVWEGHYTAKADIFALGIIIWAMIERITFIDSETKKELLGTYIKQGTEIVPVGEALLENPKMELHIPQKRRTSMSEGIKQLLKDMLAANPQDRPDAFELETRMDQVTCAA
# UniProt O75116, sequence (whole entry, looked up): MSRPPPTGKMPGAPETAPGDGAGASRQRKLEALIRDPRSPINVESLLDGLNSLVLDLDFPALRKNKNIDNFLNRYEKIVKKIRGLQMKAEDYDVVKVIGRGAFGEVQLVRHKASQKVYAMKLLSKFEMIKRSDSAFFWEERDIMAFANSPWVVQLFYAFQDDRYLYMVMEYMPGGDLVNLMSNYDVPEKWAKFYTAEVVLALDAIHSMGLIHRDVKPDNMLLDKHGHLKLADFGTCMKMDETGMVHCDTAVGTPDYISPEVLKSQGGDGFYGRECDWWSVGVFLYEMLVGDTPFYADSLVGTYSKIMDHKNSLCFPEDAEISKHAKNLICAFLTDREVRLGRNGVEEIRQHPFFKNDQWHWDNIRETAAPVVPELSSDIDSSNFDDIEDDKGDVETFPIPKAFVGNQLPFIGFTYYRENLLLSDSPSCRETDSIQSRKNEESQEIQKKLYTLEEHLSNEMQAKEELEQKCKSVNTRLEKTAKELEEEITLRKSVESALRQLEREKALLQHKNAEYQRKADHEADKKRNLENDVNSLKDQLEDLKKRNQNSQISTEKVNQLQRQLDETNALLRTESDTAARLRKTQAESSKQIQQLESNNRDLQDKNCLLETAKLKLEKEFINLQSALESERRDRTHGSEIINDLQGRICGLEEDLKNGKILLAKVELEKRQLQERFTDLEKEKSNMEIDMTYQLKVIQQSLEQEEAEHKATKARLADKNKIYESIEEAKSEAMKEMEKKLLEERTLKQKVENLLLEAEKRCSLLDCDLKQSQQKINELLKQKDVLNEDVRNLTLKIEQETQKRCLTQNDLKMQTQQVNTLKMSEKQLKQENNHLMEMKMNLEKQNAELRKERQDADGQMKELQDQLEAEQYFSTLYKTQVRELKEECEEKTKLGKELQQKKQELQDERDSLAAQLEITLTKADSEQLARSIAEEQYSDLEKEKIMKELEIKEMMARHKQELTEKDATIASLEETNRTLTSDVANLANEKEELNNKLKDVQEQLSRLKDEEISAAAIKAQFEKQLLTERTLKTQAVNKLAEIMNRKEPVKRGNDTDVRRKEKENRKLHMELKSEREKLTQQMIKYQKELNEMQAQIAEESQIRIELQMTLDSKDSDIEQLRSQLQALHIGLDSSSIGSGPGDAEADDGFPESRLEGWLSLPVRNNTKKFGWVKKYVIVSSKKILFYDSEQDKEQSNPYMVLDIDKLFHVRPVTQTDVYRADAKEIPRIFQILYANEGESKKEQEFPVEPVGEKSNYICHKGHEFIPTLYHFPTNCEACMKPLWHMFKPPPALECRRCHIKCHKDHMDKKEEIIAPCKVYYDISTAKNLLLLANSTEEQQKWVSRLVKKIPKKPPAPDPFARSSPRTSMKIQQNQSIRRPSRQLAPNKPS

# Sample 1 — technique: competitive binding panel; tested at: 1 µM; baseline: vehicle
# Structure (SMILES): Cc1ccc(NC(=O)c2ccnc(C(F)(F)F)c2)cc1-c1cc(OCCO)nc(N2CCOCC2)c1
target,remaining binding [%]
"DDR2 (Homo sapiens, UniProt Q16832)",16
"EIF2AK1 (Homo sapiens, UniProt Q9BQI3)",94
"CAMKK1 (Homo sapiens, UniProt Q8N5S9)",97
"STK36 (Homo sapiens, UniProt Q9NRP7)",90
"CDKL2 (Homo sapiens, UniProt Q92772)",96
"PIK3CA (Homo sapiens, UniProt P42336, Q546K)",80
"STK35 (Homo sapiens, UniProt Q8TDR2)",98

# Sample 2 — read-out: cell-free assay; technique: competition with immobilised ligand; tested at: 1 µM
# Compound: CO[C@H]1CC[C@H](CNc2ccc(S(=O)(=O)NC(=O)c3ccc(N4CCN(CC5=C(c6ccc(Cl)cc6)CC(C)(C)CC5)CC4)cc3Oc3cnc4[nH]ccc4c3)cc2[N+](=O)[O-])CC1
target,remaining binding [%]
"STK32A (Homo sapiens, UniProt Q8WU08)",99
"ROCK2 (Homo sapiens, UniProt O75116)",100
"FLT3 (Homo sapiens, UniProt P36888, D835Y)",100
"DSTYK (Homo sapiens, UniProt Q6XUX3)",100
"Tyrosine-protein kinase ABL1, phosphorylated (ABL1, Homo sapiens, UniProt P00519, Y253F)",100
"BLK (Homo sapiens, UniProt P51451)",76
"PIP4K2B (Homo sapiens, UniProt P78356)",96
"EGFR (Homo sapiens, UniProt P00533, L858R/T790M)",98
"Tyrosine-protein kinase JAK3, JH1 (JAK3, Homo sapiens, UniProt P52333)",84

# Sample 3 — species: mouse; matrix: microsomes or S9; tested at: 2 µM; time: 0.5 h
Compound,remaining compound
Cn1cc(-c2ccc(=O)n(CC3CN(c4ncc(OCCN5CCCC5)cn4)CCO3)n2)cn1 (stereo not shown),74.3%
Cc1cc2c(cc3c(NCc4ccccc4F)nnc(C)n32)s1,2.84%
CC1(C)Cc2c(sc3c2c(=O)n(C2CCCCC2)c(=O)n3CC(=O)NCc2ccccc2)CO1,37.6%
Cc1cc(C)n(-c2ncnc3sc4c(c23)CC(C)CC4)n1 (stereo not shown),0.092%
O=c1cnnc(Nc2ccc(Br)cc2)[nH]1,73.3%
COc1ccc(/C=C2\OC(=O)C=C2c2ccc(O)cc2)cc1,57.5%
O=C(Nc1ccc(/C=C/C(=O)N2CCC[C@H]2C(=O)O)cc1)Nc1ccccc1Br,> 99%
Cc1ccccc1-c1ccc(-n2cncc2C(=O)N2Cc3ccccc3C2)cc1,43.4%
CCOc1ccc(/N=C2\Nc3cccc4cccc2c34)cc1,0.0721%
Cc1cccc(OCCn2cnc3c(cnn3-c3cccc(C(F)(F)F)c3)c2=O)c1,96.3%

# Sample 4 — action: inhibitor; notes: literature data
# Target: Synaptic vesicular amine transporter (SLC18A2, Homo sapiens, UniProt Q05940)
# UniProt Q05940, sequence (whole entry, looked up): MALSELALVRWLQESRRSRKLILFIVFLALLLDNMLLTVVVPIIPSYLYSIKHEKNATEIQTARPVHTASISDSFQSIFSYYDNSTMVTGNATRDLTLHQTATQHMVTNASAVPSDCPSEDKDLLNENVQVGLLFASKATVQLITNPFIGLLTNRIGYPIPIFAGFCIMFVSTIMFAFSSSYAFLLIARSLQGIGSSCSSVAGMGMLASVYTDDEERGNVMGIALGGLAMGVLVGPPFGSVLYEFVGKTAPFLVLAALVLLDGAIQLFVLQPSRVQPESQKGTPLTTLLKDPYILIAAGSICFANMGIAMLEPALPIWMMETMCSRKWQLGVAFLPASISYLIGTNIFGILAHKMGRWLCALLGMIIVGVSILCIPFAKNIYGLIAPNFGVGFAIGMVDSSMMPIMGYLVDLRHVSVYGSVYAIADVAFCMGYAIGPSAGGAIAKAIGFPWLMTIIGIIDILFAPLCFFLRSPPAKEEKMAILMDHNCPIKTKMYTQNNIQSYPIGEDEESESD
Structure (SMILES),IC50 [nM]
COc1cc2nc(N3CCN(C(=O)C4CCCO4)CC3)nc(N)c2cc1OC (stereo not shown),313
Cc1nc2n(c(=O)c1CCN1CCC(c3noc4cc(F)ccc34)CC1)CCCC2,1640
N[C@@H](Cc1cc(I)c(Oc2cc(I)c(O)c(I)c2)c(I)c1)C(=O)O,6600
COc1ccc2c(c1)c(CC(=O)O)c(C)n2C(=O)c1ccc(Cl)cc1,> 10000
CCc1nn(CCCN2CCN(c3cccc(Cl)c3)CC2)c(=O)n1CCOc1ccccc1,667
Oc1ccc(C(O)CNCCCCCCNCC(O)c2ccc(O)c(O)c2)cc1O (stereo not shown),468
CCN(CCCCOC(=O)c1ccc(OC)c(OC)c1)C(C)Cc1ccc(OC)cc1 (stereo not shown),470
COc1ccnc(C[S+]([O-])c2nc3ccc(OC(F)F)cc3[nH]2)c1OC (stereo not shown),> 10000
COc1cc2nccc(Oc3ccc(NC(=O)NC4CC4)c(Cl)c3)c2cc1C(N)=O,> 10000
CC(C)[C@H]1CC[C@H](C(=O)N[C@H](Cc2ccccc2)C(=O)O)CC1,> 10000
N[C@@H](Cc1ccc(O)c(O)c1)C(=O)O,8100

# Some of these lines once more (sample 4):
Structure (SMILES),IC50 [nM]
CCc1nn(CCCN2CCN(c3cccc(Cl)c3)CC2)c(=O)n1CCOc1ccccc1,667
Oc1ccc(C(O)CNCCCCCCNCC(O)c2ccc(O)c(O)c2)cc1O (stereo not shown),468
CCN(CCCCOC(=O)c1ccc(OC)c(OC)c1)C(C)Cc1ccc(OC)cc1 (stereo not shown),470
COc1ccnc(C[S+]([O-])c2nc3ccc(OC(F)F)cc3[nH]2)c1OC (stereo not shown),> 10000
COc1cc2nccc(Oc3ccc(NC(=O)NC4CC4)c(Cl)c3)c2cc1C(N)=O,> 10000
CC(C)[C@H]1CC[C@H](C(=O)N[C@H](Cc2ccccc2)C(=O)O)CC1,> 10000
